Assay results gathered from unrelated publications.
Lines come from different studies, so protocols differ. ± marks the error that the study gave. ≈ marks a conversion by molar mass, not a printed value.

The MIC of CC(C)(C)Oc1ccc(CC2NC(=O)C(C(=O)NC(C(=O)NC3C(=O)N4C3SC(C)(C)C4C(=O)O)c3ccccc3)=C2O)cc1 (stereo not drawn) is reported as 12.5 µg/mL (≈ 19.6 µM) (Escherichia coli; broth microdilution; BW25113, Mueller-Hinton broth; with: 2,2'-bipyridyl 30 µg/mL).
The MIC of Cc1ccc(S(=O)(=O)N2C(=O)CSC2c2ccccc2[N+](=O)[O-])cc1 (stereo not drawn) is reported as 32 µg/mL (≈ 84.6 µM) (Lacticaseibacillus casei; broth microdilution; NCIM 2651).
CC[C@H]1OC(=O)[C@H](C)[C@@H](O[C@H]2C[C@@](C)(OC)[C@@H](O)[C@H](C)O2)[C@H](C)[C@@H](O[C@@H]2O[C@H](C)C[C@H](N(C)C)[C@H]2O)[C@](C)(O)C[C@@H](C)C(=O)[C@H](C)[C@@H](O)[C@]1(C)O has a susceptible isolates of 0% (Haemophilus influenzae; hospitalized pneumonia patients, clinical isolates; Fine score 70 or more).
For C[C@@H]1O[C@@H](Oc2cc(O)c3c(=O)c(O)c(-c4ccc(O)c(O)c4)oc3c2)[C@H](O)[C@H](O)[C@H]1O, the antiviral activity was 14.9% (porcine epidemic diarrhea virus; 10 µg/mL, 1 h, 4 °C, virus pre-incubation then washing).
C=CC[C@@H]1/C=C(\C)C[C@H](C)C[C@H](OC)[C@H]2O[C@@](O)(C(=O)C(=O)N3CCCC[C@H]3C(=O)O[C@H](/C(C)=C/[C@@H]3CC[C@@H](O)[C@H](OC)C3)[C@H](C)[C@@H](O)CC1=O)[C@H](C)C[C@@H]2OC — result for “distance from plasma membrane”: 153 ± 67 nm (Schizosaccharomyces pombe; item: F-actin, cytokinetic ring; 20 µg/mL, 90 min).
With COc1cc2[nH]c(C)c(-c3ccc(Oc4ccc(OC(F)(F)F)cc4)cc3)c(=O)c2cc1Cl the ED90 was 0.06 mg/kg/day (Plasmodium yoelii; suppression test; mouse; oral, 4 days, blood stage, PEG-400 vehicle; relative to: untreated).
For Cc1c(C(=O)Nc2ccc3c(c2)B(O)OC3)nnn1-c1ccccn1, the EC50 was 12.3 µM (Leishmania aethiopica; mouse peritoneal macrophages (CD-1), MHOM/ET/84/KH; 72 h, 34 °C, intracellular amastigotes).
O=C(Nc1nnc(SCC(O)(Cn2cncn2)c2ccc(F)cc2F)s1)Nc1ccccc1Cl (stereo not drawn) has an MIC90 of 4 µg/mL (≈ 7.63 µM) (Nannizzia gypsea; broth microdilution; PTCC 5070; 48 h, 37 °C).
Cc1cccc(NC(=O)CSc2nc3ccccc3c(=O)n2-c2ccc(S(N)(=O)=O)cc2)c1 gave an inhibition zone of 22 mm (Candida albicans; microbial growth, well diffusion; ATCC10231; 500 µg/mL, 72 h).
The sensitive strains of CC[C@H]1OC(=O)[C@H](C)[C@@H](O[C@H]2C[C@@](C)(OC)[C@@H](O)[C@H](C)O2)[C@H](C)[C@@H](O[C@@H]2O[C@H](C)C[C@H](N(C)C)[C@H]2O)[C@](C)(O)C[C@@H](C)CN(C)[C@H](C)[C@@H](O)[C@]1(C)O is reported as 0% (other Enterobacteriaceae; community-acquired pneumonia patients; Fine score 70 or more).
CCN(CC)C(=O)CN1C(=O)Cc2c([nH]c3ccc(Br)cc23)-c2ccc(Cl)cc21 gave an infected macrophages of 72 to 107% (Leishmania braziliensis; intracellular amastigote infection, DAPI fluorescence microscopy; macrophages; 10 µM, 24 h, 5 µM if macrophages detach; lower = more active).
For CC1(C)S[C@@H]2[C@H](NC(=O)[C@H](N)c3ccc(O)cc3)C(=O)N2[C@H]1C(=O)O, the sensitive strains was 92.9% (other Haemophilus species; community-acquired pneumonia patients; Fine score 70 or more).
CNC(=O)c1ccc(-c2cnn3ccc(C(=O)N(CC(=O)O)c4ccc(Cl)cc4)cc23)cc1 gave an EC50 of over 20 µM (Cryptosporidium hominis; cytopathic effect; HCT-8; 48 h).
O=C(Nc1ccc(Br)cc1)Nc1nnc(SCC(O)(Cn2cncn2)c2ccc(F)cc2F)s1 (stereo not drawn) gave an MIC90 of 8 µg/mL (≈ 14.1 µM) (Nannizzia gypsea; broth microdilution; PTCC 5070; 48 h, 37 °C).
For O=C(CN1C(=O)Cc2c([nH]c3ccc(Br)cc23)-c2ccc(Cl)cc21)NCCN1CCCCC1, the EC50 was 4.1 µM (Leishmania braziliensis; parasite growth; J774; 24 h, intracellular, amastigote).

For quick reference, copied from above:
O=C(Nc1nnc(SCC(O)(Cn2cncn2)c2ccc(F)cc2F)s1)Nc1ccccc1Cl (stereo not drawn) has an MIC90 of 4 µg/mL (≈ 7.63 µM) (Nannizzia gypsea; broth microdilution; PTCC 5070; 48 h, 37 °C).
Cc1cccc(NC(=O)CSc2nc3ccccc3c(=O)n2-c2ccc(S(N)(=O)=O)cc2)c1 gave an inhibition zone of 22 mm (Candida albicans; microbial growth, well diffusion; ATCC10231; 500 µg/mL, 72 h).
